Measurements from different studies.
Compare with care: the assays were run in different laboratories. ≈ marks a conversion by molar mass, not a printed value.
Organism: Staphylococcus epidermidis

With CN[C@H](CC(C)C)C(=O)N[C@H]1C(=O)N[C@@H](CC(N)=O)C(=O)N[C@H]2C(=O)N[C@H]3C(=O)N[C@H](C(=O)N[C@H](C(=O)O)c4cc(O)cc(O)c4-c4cc3ccc4O)[C@H](O)c3ccc(c(Cl)c3)Oc3cc2cc(c3O[C@@H]2O[C@H](CO)[C@@H](O)[C@H](O)[C@H]2O[C@H]2C[C@](C)(N)[C@H](O)[C@H](C)O2)Oc2ccc(cc2Cl)[C@H]1O the MIC was 0.59 µM (≈ 0.855 µg/mL) (MRSE 35984; 16 h).
The MIC of CC[C@H](C)[C@H](NC(=O)[C@@H]1CCCN1C(=O)[C@@H]1CCCN1C(=O)[C@H](CCCNC(=N)N)NC(=O)[C@H](Cc1ccccc1)NC(=O)[C@@H](N)CCCNC(=N)N)C(=O)N[C@@H](CCCNC(=N)N)C(=O)N[C@@H](CCCNC(=N)N)C(=O)N1CCC[C@H]1C(=O)N1CCC[C@H]1C(=O)N[C@H](C(=O)N[C@@H](CCCNC(=N)N)C(=O)N1CCC[C@H]1C(=O)N1CCC[C@H]1C(=O)N[C@@H](Cc1ccccc1)C(=O)N[C@@H](Cc1ccc(O)cc1)C(=O)N1CCC[C@H]1C(=O)N1CCC[C@H]1C(=O)N[C@@H](Cc1ccccc1)C(=O)N[C@@H](CCCNC(=N)N)C(=O)N1CCC[C@H]1C(=O)N1CCC[C@H]1C(=O)N[C@H](C(=O)N[C@@H](CCCNC(=N)N)C(=O)N1CCC[C@H]1C(=O)N1CCC[C@H]1C(=O)N[C@H](C(=O)N[C@@H](Cc1ccccc1)C(=O)N1CCC[C@H]1C(=O)N1CCC[C@H]1C(=O)N[C@H](C(=O)N[C@@H](CCCNC(=N)N)C(=O)N1CCC[C@H]1C(=O)N1CCC[C@H]1C(=O)N[C@@H](Cc1ccccc1)C(=O)N[C@@H](CCCNC(=N)N)C(=O)N1CCC[C@H]1C(=O)N1CCC[C@H]1C(=O)N[C@@H](CC(C)C)C(=O)NCC(=O)N1CCC[C@H]1C(=O)N[C@@H](Cc1ccccc1)C(=O)N1CCC[C@H]1C(=O)O)[C@@H](C)CC)[C@@H](C)CC)[C@@H](C)CC)[C@@H](C)CC is reported as 124 µM (≈ 640 µg/mL) (broth dilution; ATCC 51625; 18 h, 37 °C).
The MIC of CC[C@H](C)[C@H](NC(=O)[C@H](Cc1c[nH]c2ccccc12)NC(=O)[C@@H](NC(=O)[C@@H](NC(=O)[C@@H](NC(=O)[C@H](CCCNC(=N)N)NC(=O)[C@@H](N)CCCNC(=N)N)[C@@H](C)CC)[C@@H](C)O)[C@@H](C)CC)C(=O)N[C@H](C(=O)N[C@H](C(=O)N[C@@H](CCCNC(=N)N)C(=O)N[C@@H](CCCNC(=N)N)C(N)=O)[C@@H](C)CC)[C@@H](C)O is reported as 128 µM (≈ 190 µg/mL) (broth microdilution; 12228, Mueller-Hinton broth; 24 h, 37 °C, lowest concentration, 95% inhibition, added: BSA).
The MIC of CC(C)C[C@H](NC(=O)[C@@H](NC(=O)[C@H](CCCNC(=N)N)NC(=O)[C@H](CCC(N)=O)NC(=O)[C@H](Cc1ccccc1)NC(=O)[C@H](Cc1ccc(O)cc1)NC(=O)[C@H](CC(N)=O)NC(=O)[C@H](Cc1c[nH]c2ccccc12)NC(=O)[C@@H](NC(=O)[C@H](CCCNC(=N)N)NC(=O)[C@H](CCCCN)NC(=O)[C@@H](N)Cc1ccccc1)C(C)C)C(C)C)C(=O)N[C@H](C(=O)N[C@@H](CCCCN)C(=O)N[C@@H](CCCCN)C(N)=O)C(C)C is reported as greater than 100 µM (broth dilution; KCTC 1917).
CS(=O)(=O)Nc1ncn(-c2cc(F)c(COc3ccc(OS(=O)(=O)F)cc3)c(F)c2)n1 has an MIC of greater than 50 µM (14490).
For CNC(C)C1CCC(N)C(OC2C(N)CC(N)C(OC3OCC(C)(O)C(NC)C3O)C2O)O1 (centres unmarked), the MLC was 2 µg/mL (≈ 4.19 µM) (broth microdilution).
CC[C@H](C)[C@H](NC(=O)CN)C(=O)NCC(=O)N[C@@H](CCCCN)C(=O)N[C@@H](Cc1ccccc1)C(=O)N[C@@H](CC(C)C)C(=O)N[C@@H](Cc1c[nH]cn1)C(=O)N[C@@H](CO)C(=O)N[C@@H](C)C(=O)N[C@@H](CCCCN)C(=O)N[C@@H](CCCCN)C(=O)N[C@@H](Cc1ccccc1)C(=O)NCC(=O)N[C@@H](CCCCN)C(=O)N[C@@H](C)C(=O)N[C@@H](Cc1ccccc1)C(=O)N[C@H](C(=O)NCC(=O)N[C@@H](CCC(=O)O)C(=O)N[C@H](C(=O)N[C@@H](CCSC)C(=O)N[C@@H](CC(N)=O)C(=O)N[C@@H](CO)C(N)=O)[C@@H](C)CC)C(C)C has an MIC of 64.9 µM (≈ 160 µg/mL) (broth dilution; ATCC 51625; 18 h, 37 °C).
For CC[C@H](C)[C@H](N)C(=O)N[C@@H](CCCNC(=N)N)C(=O)N[C@H](C(=O)N[C@@H](Cc1c[nH]c2ccccc12)C(=O)N[C@@H](CCCCN)C(=O)N[C@@H](CCCCN)C(=O)N[C@@H](Cc1ccccc1)C(=O)N[C@H](C(=O)N[C@@H](CCCNC(=N)N)C(=O)N[C@@H](CCCCN)C(=O)N[C@@H](CCSC)C(=O)N[C@@H](CCCCN)C(=O)N[C@@H](C)C(=O)N[C@H](C(=O)N[C@@H](Cc1ccc(O)cc1)C(=O)N[C@@H](Cc1c[nH]cn1)C(N)=O)[C@@H](C)CC)C(C)C)C(C)C, the MIC was 100 µM (≈ 210 µg/mL) (broth dilution; KCTC 1917).
